# Measurements gathered from unrelated publications.
# Every numbered part comes from another study and shows a few of its results, in no order. Changes are numbered by the printed parent chain.
# Chain of UniProt Q9NWZ3 (whole entry, looked up): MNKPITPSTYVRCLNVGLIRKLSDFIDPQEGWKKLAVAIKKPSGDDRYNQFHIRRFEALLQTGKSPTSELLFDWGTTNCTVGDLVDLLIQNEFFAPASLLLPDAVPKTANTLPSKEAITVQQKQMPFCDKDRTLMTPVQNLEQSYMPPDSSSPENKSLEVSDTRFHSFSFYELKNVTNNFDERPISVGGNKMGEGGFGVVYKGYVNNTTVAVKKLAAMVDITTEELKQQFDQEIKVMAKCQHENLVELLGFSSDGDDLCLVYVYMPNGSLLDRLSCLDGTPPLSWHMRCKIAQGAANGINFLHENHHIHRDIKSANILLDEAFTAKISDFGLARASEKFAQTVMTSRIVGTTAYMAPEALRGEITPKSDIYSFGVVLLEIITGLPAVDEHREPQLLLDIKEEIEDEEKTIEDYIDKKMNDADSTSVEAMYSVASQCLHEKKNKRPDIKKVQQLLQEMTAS

# Series 1 — method: aptamer microarray, sandwich; molecule type: DNA with 2'F-ANA; matrix: in vitro; tested at: 200 nM; with: Cy3 exosite-II aptamer, 400 nM; reading: higher = stronger binding; oligonucleotide: GGTTGGTGTGGTTGG
# Target: Prothrombin, mature alpha-thrombin (F2, Homo sapiens, UniProt P00734)
# Setting: whole 15-mer aptamer, many near background
Modification,mean fluorescence intensity
2'F-ANA at 2 4 5 6 7 10,54.3 a.u.
2'F-ANA at 1 3 5 8 9 13 14 15,52.3 a.u.
2'F-ANA at 3 5 8 10 11 12,87.3 a.u.
2'F-ANA at 2 4 5 6 11 12 14 15,48.4 a.u.
2'F-ANA at 1 3 6 8 10 11 12 13 15,91.2 a.u.
2'F-ANA at 1 2 3 4 6 8 9 10 11,77.8 a.u.
2'F-ANA at 1 4 5 7 9 10 12 13 14 15,46.5 a.u.
2'F-ANA at 1 2 4 6 7 9 10 11 12 14 15,49.2 a.u.

# Series 2 — method: RNAcompete; molecule type: RNA; matrix: in vitro; tested at: 20 nM; setting: 7-mer, probes averaged, single round; relative to: mean of 7-mers; reading: higher = stronger binding
# Target: PABPC1L2, full length, GST fusion (mouse, UniProt A0ABA7IW68)
# Target sequence (chain): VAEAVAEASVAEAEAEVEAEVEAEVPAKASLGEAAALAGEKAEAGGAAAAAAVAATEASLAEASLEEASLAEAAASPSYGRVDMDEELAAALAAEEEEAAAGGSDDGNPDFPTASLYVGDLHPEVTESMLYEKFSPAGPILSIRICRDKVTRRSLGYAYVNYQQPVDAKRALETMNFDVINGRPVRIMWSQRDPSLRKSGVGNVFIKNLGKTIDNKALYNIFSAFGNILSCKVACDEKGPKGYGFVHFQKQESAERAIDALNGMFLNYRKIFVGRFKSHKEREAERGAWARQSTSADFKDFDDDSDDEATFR
Oligonucleotide,7-mer Z-score
UAUUGAG,-0.012
AAGAAAG,1.39
UUUCUUA,-0.335
AUAGGUU,-0.0482
CCGGCCC,-0.467
UAACACC,-0.0935
AUCGGUU,-0.318
CACCAGU,-0.195

# Series 3 — target: CRIPT, C-terminal peptide; method: DHFR complementation, deep sequencing; matrix: yeast; relative to: wild type; reading: higher = weaker binding
# Setting: single substitutions, model-inferred values
# Starting sequence: ERBIN, PDZ domain 1 (human); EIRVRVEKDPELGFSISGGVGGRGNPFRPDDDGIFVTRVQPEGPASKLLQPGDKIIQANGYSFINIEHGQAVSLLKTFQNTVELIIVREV; partner TKNYKQTSV
Substitution,binding free energy change [kcal/mol]
I56S,0.12
I64N,0.0164
V6P,0.685
G22Q,-0.306
P44K,0.33
D30K,0.352
L84N,0.608
N65P,-0.0193

# Mixed results
SMILES,target,test,conditions,how to read,endpoint,result
COc1cc2c(N3CCN(C(=O)Nc4ccc(OC(C)C)cc4)CC3)ncnc2cc1OCCCN1CCCCC1,"Interleukin-1 receptor-associated kinase 4 (IRAK4, Homo sapiens, UniProt Q9NWZ3)","enzyme activity, inhibitor",0.5 µM,relative to: control,remaining activity,96%
